Results gathered from unrelated publications.
Parts stem from different laboratories: compare values within a part only.

Study 1
Target: Prothrombin, mature alpha-thrombin (F2, Homo sapiens, UniProt P00734)
Technique: aptamer microarray, sandwich
Molecule type: DNA with 2'F-ANA
Medium: in vitro
Concentration: 200 nM
Notes: whole 15-mer aptamer, many near background
Added: Cy3 exosite-II aptamer, 400 nM
Reading: higher = stronger binding
Sequence: GGTTGGTGTGGTTGG
`2'F-ANA at 1 4 5 7 10 13 15` — result for “mean fluorescence intensity”: 45.5 a.u.
`2'F-ANA at 1 2 3 5 7 8 9 12 14 15` — result for “mean fluorescence intensity”: 49.5 a.u.
For `2'F-ANA at 1 2 4 5 6 7 8 9 11 13 14`, “mean fluorescence intensity” read 47.2 a.u.
For `2'F-ANA at 2 3 6 9 11 15`, “mean fluorescence intensity” read 646 a.u.
For `2'F-ANA at 1 3 4 6 11 13 14 15`, “mean fluorescence intensity” read 60 a.u.
Under “mean fluorescence intensity”, `2'F-ANA at 1 3 4 6 8 10 12 13` is recorded as 64.9 a.u.
For `2'F-ANA at 3 4 5 6 8 9 10 13 15`, “mean fluorescence intensity” read 49.9 a.u.
`2'F-ANA at 3 4 5 7 8 9 15`: “mean fluorescence intensity” 113 a.u.
`2'F-ANA at 2 4 6 9 10 11 12 14 15`: “mean fluorescence intensity” 63.3 a.u.
Under “mean fluorescence intensity”, `2'F-ANA at 1 2 5 6 11 13 14` is recorded as 56.4 a.u.
`2'F-ANA at 1 2 3 4 6 8 9 13` — result for “mean fluorescence intensity”: 103 a.u.
Under “mean fluorescence intensity”, `2'F-ANA at 1 3 4 10 11 13 15` is recorded as 60.8 a.u.
`2'F-ANA at 1 2 3 5 6 8 9 10 12 15` — result for “mean fluorescence intensity”: 71.5 a.u.
`2'F-ANA at 3 5 7 8 10 11 12 13 14`: “mean fluorescence intensity” 52.8 a.u.
Under “mean fluorescence intensity”, `2'F-ANA at 1 2 3 4 13` is recorded as 134 a.u.
Under “mean fluorescence intensity”, `2'F-ANA at 3 7 11 12 14 15` is recorded as 824 a.u.
`2'F-ANA at 1 2 3 4 5 6 11 12 13 15` — result for “mean fluorescence intensity”: 67.8 a.u.
`2'F-ANA at 2 3 4 8 10 11 14 15`: “mean fluorescence intensity” 152 a.u.
Under “mean fluorescence intensity”, `2'F-ANA at 1 5 7 8 9 10 11 13` is recorded as 43.7 a.u.
`2'F-ANA at 5 6 8 9 11 12`: “mean fluorescence intensity” 228 a.u.
`2'F-ANA at 1 3 4 7 12 13 14`: “mean fluorescence intensity” 84.3 a.u.
`2'F-ANA at 1 2 4 7 8 10 11 12 14 15`: “mean fluorescence intensity” 47.1 a.u.

Study 2
Target: Sal-like protein 4, full length isoform B (SALL4, Homo sapiens, UniProt Q9UJQ4-2, residues 1-616)
Technique: universal PBM
Molecule type: double-stranded DNA, one strand shown
Medium: in vitro
Concentration: not given
Notes: 8-mer, flanks averaged, mean of replicates
Reading: higher = stronger binding
Construct (chain): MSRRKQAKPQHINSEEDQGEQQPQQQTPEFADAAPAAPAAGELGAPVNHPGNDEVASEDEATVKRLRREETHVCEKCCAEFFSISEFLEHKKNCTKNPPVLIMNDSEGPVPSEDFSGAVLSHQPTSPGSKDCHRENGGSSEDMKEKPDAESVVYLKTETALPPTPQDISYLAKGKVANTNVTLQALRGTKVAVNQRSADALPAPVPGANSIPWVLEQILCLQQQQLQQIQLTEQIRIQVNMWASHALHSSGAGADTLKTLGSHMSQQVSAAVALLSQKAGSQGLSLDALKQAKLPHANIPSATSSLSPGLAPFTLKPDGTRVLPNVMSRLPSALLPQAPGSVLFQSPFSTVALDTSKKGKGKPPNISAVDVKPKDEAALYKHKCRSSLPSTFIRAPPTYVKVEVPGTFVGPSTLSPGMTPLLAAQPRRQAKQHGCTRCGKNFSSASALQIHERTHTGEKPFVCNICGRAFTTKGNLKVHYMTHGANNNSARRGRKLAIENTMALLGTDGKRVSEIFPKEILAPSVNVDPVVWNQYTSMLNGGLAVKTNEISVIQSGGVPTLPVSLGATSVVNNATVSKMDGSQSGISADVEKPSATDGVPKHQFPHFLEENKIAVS
`AGGCTGGA` gave an E-score of -0.209.
`ATTTTCGA` gave an E-score of 0.223.
`AATGCACT` has an E-score of 0.192.
With `CTCCGCGA` the E-score was -0.312.
`CCTTAGGA` gave an E-score of -0.0207.
With `GAAATTCC` the E-score was 0.0668.
For `CGGACTAC`, the E-score was -0.0571.
`CTGCTTTC` gave an E-score of -0.108.
`AGGCCATC` gave an E-score of -0.0649.
`AATCGTTC` gave an E-score of 0.0654.
With `CCTCTCCA` the E-score was -0.178.
The E-score of `AGGAGTAC` is reported as -0.087.
For `CACAGGAC`, the E-score was -0.117.
The E-score of `AAAACCGG` is reported as -0.208.
For `ATACTTCG`, the E-score was 0.171.
For `ACACGATC`, the E-score was -0.0696.
`ACTTAAGC` gave an E-score of 0.0304.
For `CGCATACC`, the E-score was 0.0139.
The E-score of `ACTAATAG` is reported as 0.166.
For `CAACACAA`, the E-score was 0.0898.
For `ATCTAGAG`, the E-score was 0.0271.
`ACCGCGAT` gave an E-score of -0.0335.
`GACCTAGC` gave an E-score of -0.142.

Study 3
Target: Histone acetyltransferase KAT6A, both winged helices, GST fusion (KAT6A, Homo sapiens, UniProt Q92794, residues 1-181)
Technique: protein binding microarray
Molecule type: double-stranded DNA, one strand shown
Medium: in vitro
Concentration: not given
Notes: 8-mer, flanks averaged, mean of 2 arrays, mostly near background
Baseline: not given
Reading: higher = stronger binding
Target sequence (chain): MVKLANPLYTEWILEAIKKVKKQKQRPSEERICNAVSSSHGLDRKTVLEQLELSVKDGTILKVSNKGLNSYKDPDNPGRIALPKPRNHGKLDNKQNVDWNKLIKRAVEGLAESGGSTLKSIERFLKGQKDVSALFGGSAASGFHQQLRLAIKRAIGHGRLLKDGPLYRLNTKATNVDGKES
For `CAGTTCGA`, the E-score was -0.0724.
`GACCCAGC` has an E-score of -0.0786.
With `CAATGTTA` the E-score was 0.0204.
`GCTGACAA` has an E-score of 0.0407.
`ATTAAAGA` has an E-score of -0.0672.
For `GCGCTTCA`, the E-score was 0.229.
With `AAATCCCC` the E-score was -0.143.
For `GCGTTGTA`, the E-score was 0.183.
`GCCTCAGC` gave an E-score of -0.0201.
`ATGGAAGG` has an E-score of -0.0856.
`ATTGTGCC` gave an E-score of -0.0842.
`CCCAAGTC` has an E-score of -0.115.
With `AAGCTATC` the E-score was -0.0463.
`CGCTATTA` gave an E-score of 0.193.
For `CCCCGGAC`, the E-score was 0.0814.
The E-score of `AATTCGAC` is reported as -0.099.
`CTAATTAA` has an E-score of -0.0908.

Study 4
Target: RNA binding protein fox-1 homolog 2, RRM domain, GST-SBP tag (RBFOX2, Homo sapiens, UniProt O43251-10, residues 100-194)
Technique: RNA Bind-n-Seq
Molecule type: RNA
Medium: in vitro
Concentration: 365 nM
Notes: natural RNA segment, single round, ends assumed
Baseline: no-protein control
Reading: higher = stronger binding
Construct (chain): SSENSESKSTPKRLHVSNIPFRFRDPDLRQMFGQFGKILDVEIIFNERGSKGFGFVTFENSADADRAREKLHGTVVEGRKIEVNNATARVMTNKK
For `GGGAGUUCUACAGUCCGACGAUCUAGCCUGUGUUUUAAACCAGCCAUGUUUCCUUGUAUAUUUCCCUACCCGCUGCCCCACAUACCCAGCAUGCCGCUGUGGCCACCAUGUCCUCAAAGCCUUCUGUCUGUAUUGGAAUUCUCGGGUGCCAA`, “RBNS enrichment (R)” read 0.46.
`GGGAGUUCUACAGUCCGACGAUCGAGCACCCCGAGUUGGCAGUCCUCGCAGACUCGGUUGACCUUCAGGAGUCCACAGGGAUAGCUUCCGACAGCUCCAGCGACUCUUCCAGCUCCUCCAGCUCCAGUUCGUCUGGAAUUCUCGGGUGCCAA`: “RBNS enrichment (R)” 0.279.
`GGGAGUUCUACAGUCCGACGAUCGUUACCAAAUUUUAUAUAAGAAUGGAAUAGUCAGUCUGGCCUUAAAGAGACACACAAAGAUGGGCUGUGAGCCCCUAGAAAGGGACUAGUUAGUUGCCUUUGAUAGAAUUUGGAAUUCUCGGGUGCCAA`: “RBNS enrichment (R)” 0.538.
Under “RBNS enrichment (R)”, `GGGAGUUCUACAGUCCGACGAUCCCAGACUGAAUUUCCUCAUAAAGAAAAAAUGGCGUGCCUUGUGUCUGUGUUUCUCUUUUCUCUGAAAGGAUUAAUAGAUCUGAAGCUUUGGGCCACUCAGAGCCUUCCUUUGGAAUUCUCGGGUGCCAA` is recorded as 0.372.
For `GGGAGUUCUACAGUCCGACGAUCGGCUACCAGAACAUGGGGCAGGUGGCUGGUGUUGGUGUCCCAGCCUAAGAGCCACCUGCUGCAGUUACCAUGGCAUGCUGAGUUGAUGCACCAGGUGGCAGCAGCCAUCCUGGAAUUCUCGGGUGCCAA`, “RBNS enrichment (R)” read 0.313.
`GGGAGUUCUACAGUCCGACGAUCCUGCCUUGGCAAGCCUAUUUUUGUGACCUGGCAGCACAGAUUUAACACUAUUCGUUAAAAGCACUUUUUUUUUAAUGCGUUUAAUCCCUUAUAAAGAAUGCCAAUUAAGUUGGAAUUCUCGGGUGCCAA`: “RBNS enrichment (R)” 3.23.
`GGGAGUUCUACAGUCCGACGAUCGGACUGGACUCGAAGCUAGAACUGGCAGAAGAGUUCUGGCAUCCACAGCGCAAUGCUGCCACCACCCAGUUUCUUCAUCAGAAGACAAGGGAACGAGAAAACUGCUGUUCUGGAAUUCUCGGGUGCCAA` — result for “RBNS enrichment (R)”: 0.291.
`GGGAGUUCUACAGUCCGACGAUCCAAUACACAGGCAGUAUUCUAAAAUAGCACUGAACAGGGAGUCAGGAGACUAUUGUCUCCUAAACCCAGGACUAGAGUUCCCUCGUACUGUCACUCCUUUGGUCAUUAAAUGGAAUUCUCGGGUGCCAA`: “RBNS enrichment (R)” 0.442.
For `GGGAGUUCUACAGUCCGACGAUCUCCAUGUAGGAGAGUGGCUCUCUCAGAUCUCUCAGGGCGUCUGGUUAUAGGGAAACAAGUGGAGCAGGGACGUGGCUUUAAUUGGAGCACUCGGCUGGGCUGCUUGGGGAUGGAAUUCUCGGGUGCCAA`, “RBNS enrichment (R)” read 0.441.
`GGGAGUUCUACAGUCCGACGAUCUAAUUUGUGUUUUUGGAUUUUCUUUCAGAAGUAGUCAAAUGUCUAUGCUGUUACAUCCAGAAUAUUCAUUAGGCUGCCCCACAGCUCUUCUGUAUAUAUAGAGACCACAGUGGAAUUCUCGGGUGCCAA` — result for “RBNS enrichment (R)”: 0.311.
For `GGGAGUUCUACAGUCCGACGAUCCAUCUGUAGGUAGUUUGUCAUGAAAAAGUGGAGAGAAGAUGAGACUUUUGAAUGAAUGAAAAAGGGUAUCUUGAUACCCAGAAUUCCCCCCAAAGUACGGGUAAUUCAACUGGAAUUCUCGGGUGCCAA`, “RBNS enrichment (R)” read 2.59.
`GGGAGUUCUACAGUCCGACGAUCGCUCUAUCCCAGUCGCCCAUUAGCUUGAUUCAAACAAAGCCCCAGCAGGCCUUUGCGUUUUUAUCCUUCAUAACCUUCAUCUUAAUUUGAACUUGUAGCUUGGACUUUAAUGGAAUUCUCGGGUGCCAA` — result for “RBNS enrichment (R)”: 0.588.
